Measured values gathered from unrelated publications.
A part holds a random share of what one study measured.
UniProt P54760, sequence (whole entry, looked up): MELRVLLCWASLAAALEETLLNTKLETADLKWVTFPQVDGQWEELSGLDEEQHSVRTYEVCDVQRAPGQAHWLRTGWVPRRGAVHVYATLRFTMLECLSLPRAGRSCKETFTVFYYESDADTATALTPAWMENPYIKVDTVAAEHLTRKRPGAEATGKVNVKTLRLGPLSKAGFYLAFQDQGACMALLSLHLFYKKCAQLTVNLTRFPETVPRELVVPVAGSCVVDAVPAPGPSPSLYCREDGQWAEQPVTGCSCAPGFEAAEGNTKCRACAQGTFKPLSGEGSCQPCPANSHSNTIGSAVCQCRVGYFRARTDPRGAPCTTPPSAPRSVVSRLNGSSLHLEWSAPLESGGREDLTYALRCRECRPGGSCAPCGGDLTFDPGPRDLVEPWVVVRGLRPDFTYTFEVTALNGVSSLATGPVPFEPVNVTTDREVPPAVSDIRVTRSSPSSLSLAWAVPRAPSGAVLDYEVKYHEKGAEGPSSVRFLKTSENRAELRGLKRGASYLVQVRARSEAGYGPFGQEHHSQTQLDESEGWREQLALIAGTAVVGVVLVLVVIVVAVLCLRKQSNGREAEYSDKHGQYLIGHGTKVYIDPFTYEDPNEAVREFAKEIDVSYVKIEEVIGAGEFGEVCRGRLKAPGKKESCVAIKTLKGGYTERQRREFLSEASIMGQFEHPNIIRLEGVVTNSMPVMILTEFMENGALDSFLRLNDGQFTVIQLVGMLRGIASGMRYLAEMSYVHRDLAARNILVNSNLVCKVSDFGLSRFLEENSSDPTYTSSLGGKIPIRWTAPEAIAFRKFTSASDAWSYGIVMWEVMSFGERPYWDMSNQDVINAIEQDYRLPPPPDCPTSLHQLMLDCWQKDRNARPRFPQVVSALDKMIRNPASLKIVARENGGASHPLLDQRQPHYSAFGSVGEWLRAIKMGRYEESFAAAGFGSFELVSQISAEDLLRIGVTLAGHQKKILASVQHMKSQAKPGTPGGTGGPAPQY
UniProt Q00534, sequence (whole entry, looked up): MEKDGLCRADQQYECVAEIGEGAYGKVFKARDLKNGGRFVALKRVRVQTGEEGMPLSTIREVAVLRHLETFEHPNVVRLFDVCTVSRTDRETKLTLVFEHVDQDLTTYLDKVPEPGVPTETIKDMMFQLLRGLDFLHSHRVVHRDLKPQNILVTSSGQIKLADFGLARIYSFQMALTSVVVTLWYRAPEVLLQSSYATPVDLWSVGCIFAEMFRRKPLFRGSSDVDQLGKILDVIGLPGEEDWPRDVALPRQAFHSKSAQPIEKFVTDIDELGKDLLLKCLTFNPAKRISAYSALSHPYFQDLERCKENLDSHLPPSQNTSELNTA
UniProt O75676, sequence (whole entry, looked up): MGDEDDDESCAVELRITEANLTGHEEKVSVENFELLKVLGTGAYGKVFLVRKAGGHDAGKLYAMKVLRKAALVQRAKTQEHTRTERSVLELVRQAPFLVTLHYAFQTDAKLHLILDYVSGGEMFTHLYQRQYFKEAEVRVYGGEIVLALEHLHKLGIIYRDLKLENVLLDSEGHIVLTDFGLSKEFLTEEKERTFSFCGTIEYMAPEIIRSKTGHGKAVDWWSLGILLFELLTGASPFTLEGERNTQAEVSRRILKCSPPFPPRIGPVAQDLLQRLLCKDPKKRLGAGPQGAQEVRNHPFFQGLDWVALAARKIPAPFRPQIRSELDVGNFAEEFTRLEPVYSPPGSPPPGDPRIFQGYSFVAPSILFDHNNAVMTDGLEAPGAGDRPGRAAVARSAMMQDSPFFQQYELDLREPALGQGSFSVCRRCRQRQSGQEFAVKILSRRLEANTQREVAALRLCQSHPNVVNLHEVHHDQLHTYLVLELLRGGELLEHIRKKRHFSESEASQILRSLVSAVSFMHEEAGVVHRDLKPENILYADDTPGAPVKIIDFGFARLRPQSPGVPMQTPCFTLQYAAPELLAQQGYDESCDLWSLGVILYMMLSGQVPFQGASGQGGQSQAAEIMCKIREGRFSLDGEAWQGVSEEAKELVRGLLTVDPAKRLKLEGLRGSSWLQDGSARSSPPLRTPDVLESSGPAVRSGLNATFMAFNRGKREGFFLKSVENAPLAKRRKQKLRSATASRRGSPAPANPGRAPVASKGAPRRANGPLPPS
UniProt O15530, sequence (whole entry, looked up): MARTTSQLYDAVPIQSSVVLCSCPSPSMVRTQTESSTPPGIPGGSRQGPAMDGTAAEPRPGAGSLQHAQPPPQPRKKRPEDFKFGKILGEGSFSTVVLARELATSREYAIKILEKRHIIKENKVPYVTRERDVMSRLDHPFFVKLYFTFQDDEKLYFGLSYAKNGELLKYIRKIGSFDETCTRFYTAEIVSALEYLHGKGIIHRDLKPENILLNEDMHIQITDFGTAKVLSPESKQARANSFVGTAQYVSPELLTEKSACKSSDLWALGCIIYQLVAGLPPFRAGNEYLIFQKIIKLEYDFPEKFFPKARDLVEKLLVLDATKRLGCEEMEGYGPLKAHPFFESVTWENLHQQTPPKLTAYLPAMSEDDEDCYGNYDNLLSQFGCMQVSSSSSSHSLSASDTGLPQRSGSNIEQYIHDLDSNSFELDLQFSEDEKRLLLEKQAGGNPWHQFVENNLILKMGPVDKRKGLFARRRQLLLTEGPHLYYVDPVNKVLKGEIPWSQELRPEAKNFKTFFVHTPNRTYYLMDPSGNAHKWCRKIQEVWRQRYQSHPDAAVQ
UniProt Q16644, sequence (whole entry, looked up): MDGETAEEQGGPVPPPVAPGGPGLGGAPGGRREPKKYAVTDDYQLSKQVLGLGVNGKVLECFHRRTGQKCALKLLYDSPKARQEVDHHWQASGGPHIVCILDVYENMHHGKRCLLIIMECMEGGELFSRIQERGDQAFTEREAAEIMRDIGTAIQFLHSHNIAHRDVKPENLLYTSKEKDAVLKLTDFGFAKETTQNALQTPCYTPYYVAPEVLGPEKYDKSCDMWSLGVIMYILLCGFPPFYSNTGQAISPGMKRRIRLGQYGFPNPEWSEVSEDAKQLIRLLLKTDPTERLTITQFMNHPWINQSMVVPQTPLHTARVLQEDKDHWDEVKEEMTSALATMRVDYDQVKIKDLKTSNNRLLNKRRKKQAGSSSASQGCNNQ
UniProt Q99759, sequence (whole entry, looked up): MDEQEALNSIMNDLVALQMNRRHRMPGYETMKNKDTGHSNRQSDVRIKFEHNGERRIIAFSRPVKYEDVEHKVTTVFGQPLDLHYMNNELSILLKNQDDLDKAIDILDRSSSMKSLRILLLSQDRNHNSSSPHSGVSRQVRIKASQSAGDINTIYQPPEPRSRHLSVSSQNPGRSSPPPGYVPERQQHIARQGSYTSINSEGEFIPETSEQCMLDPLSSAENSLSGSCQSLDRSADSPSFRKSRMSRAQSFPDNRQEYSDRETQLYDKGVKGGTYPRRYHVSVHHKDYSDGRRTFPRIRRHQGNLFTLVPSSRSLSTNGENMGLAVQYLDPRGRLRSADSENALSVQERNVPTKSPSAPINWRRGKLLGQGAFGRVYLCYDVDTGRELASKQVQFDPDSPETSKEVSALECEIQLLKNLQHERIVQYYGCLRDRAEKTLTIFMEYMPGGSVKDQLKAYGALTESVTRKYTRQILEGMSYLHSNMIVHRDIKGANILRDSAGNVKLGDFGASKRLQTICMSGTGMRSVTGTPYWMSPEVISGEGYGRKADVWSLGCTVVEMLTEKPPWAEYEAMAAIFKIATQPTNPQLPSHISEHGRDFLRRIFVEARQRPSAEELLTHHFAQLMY
UniProt Q12851, sequence (whole entry, looked up): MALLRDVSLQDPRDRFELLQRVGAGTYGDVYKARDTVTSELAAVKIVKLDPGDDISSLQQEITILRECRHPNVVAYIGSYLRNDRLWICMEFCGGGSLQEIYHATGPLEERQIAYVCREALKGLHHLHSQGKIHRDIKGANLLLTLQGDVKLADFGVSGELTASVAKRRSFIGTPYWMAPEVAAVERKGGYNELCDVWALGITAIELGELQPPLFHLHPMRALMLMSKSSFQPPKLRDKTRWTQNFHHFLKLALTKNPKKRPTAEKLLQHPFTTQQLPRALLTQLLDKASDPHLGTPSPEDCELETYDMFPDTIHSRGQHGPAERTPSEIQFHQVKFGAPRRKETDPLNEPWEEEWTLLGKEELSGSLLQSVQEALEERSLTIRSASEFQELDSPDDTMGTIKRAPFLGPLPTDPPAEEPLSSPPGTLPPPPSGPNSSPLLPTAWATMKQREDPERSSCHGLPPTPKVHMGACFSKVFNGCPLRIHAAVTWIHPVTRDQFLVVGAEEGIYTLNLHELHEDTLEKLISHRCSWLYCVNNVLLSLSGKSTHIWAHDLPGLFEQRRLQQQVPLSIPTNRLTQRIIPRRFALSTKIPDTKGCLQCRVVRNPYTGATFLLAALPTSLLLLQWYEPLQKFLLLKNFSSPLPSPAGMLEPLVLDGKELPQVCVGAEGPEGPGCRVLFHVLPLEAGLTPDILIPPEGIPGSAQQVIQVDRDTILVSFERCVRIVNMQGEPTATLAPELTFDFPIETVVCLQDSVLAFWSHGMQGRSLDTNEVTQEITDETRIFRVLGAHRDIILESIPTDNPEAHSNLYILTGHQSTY
UniProt P06493, sequence (whole entry, looked up): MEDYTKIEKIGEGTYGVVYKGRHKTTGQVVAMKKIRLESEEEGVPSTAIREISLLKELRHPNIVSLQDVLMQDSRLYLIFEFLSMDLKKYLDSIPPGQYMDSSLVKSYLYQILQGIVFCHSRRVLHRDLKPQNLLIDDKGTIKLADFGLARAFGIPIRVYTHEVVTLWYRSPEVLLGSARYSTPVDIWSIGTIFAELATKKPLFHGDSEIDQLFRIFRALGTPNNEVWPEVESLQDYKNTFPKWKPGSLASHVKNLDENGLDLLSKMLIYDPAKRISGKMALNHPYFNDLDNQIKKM

Series 1
Structure (SMILES): NS(=O)(=O)c1cc(NC(=O)C2(c3ccccc3Cl)CC2)ccc1Oc1cccc(Cl)c1
Effect on: cell-free assay
Method: competition with immobilised ligand
Concentration: 1 µM
Endpoint: remaining binding
Ribosomal protein S6 kinase alpha-4, N-terminal kinase domain (RPS6KA4, Homo sapiens, UniProt O75676): 70%
MAP3K3 (Homo sapiens, UniProt Q99759): 100%
WEE1 (Homo sapiens, UniProt P30291): 91%
STK11 (Homo sapiens, UniProt Q15831): 100%
MAP4K2 (Homo sapiens, UniProt Q12851): 100%
SRPK1 (Homo sapiens, UniProt Q96SB4): 71%

Series 2
Target: RNA binding protein fox-1 homolog 2, RRM domain, GST-SBP tag (RBFOX2, Homo sapiens, UniProt O43251-10, residues 100-194)
Method: RNA Bind-n-Seq
Molecule type: RNA
Sample: in vitro
Concentration: 365 nM
Setting: natural RNA segment, single round, ends assumed
Reference: no-protein control
Direction: higher = stronger binding
Endpoint: RBNS enrichment (R)
Residues (chain): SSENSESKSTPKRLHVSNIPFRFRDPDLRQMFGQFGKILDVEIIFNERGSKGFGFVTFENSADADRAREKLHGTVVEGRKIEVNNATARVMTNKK
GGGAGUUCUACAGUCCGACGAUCGGCCGGAGGUGUGUGUGGGGGGUUGCUCUGUUGUUUCCUUCCUAAUAAAAUAAAGACGUGUUGCCUUGUGUUGGGCUUCGUGUCACUCAUUUCUGCACUGAACAGUAGAUUGGAAUUCUCGGGUGCCAA: 0.331
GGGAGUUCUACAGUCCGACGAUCGGGCAAAGAUGCCCAUGACGACAUAGUCACCAGUGAAGUGGAUUUUACCUCAGAAGCAGUGACAGCCGCAGAAACCACAGAGGCGCUCCGCGCUGAAGAACUUACCGAAGUGGAAUUCUCGGGUGCCAA: 0.269
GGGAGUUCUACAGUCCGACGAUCAUUGAAUUUAUGCAUUAGUCUGGUGAUUUCAGUUCUGUGAAAUAUUUUGGGAUCUAUACCAAUUAAACAUUUUCAUAGUUCUGCCUAUUGUCCUUCCCUGAGGCUCCAUUUGGAAUUCUCGGGUGCCAA: 0.325
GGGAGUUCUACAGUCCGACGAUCAGCAGAUGAAGGGAAGGCUCAGAAGGGCAUCUCCUGUAGCUCCUGGCAGCUGGUUCUGGUGGCACUGAGAUGAGUGCCACCAGAGGCUCACACUCACUCUCUGUUGAGCUUGGAAUUCUCGGGUGCCAA: 0.257
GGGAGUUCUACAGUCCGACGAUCCAUCACUGCCGUUGGUCUCUCAUGACUUAACUGGCUUCCCUCUGCUGCUGCCUUGGCUUCCUCCUAAUGCUCGUGCUCUCCUGUCCUUCUGAAGUUGCUCCUUGGCCAAAUGGAAUUCUCGGGUGCCAA: 1.22
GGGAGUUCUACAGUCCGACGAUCAAAGCCAGCAGAAAAGAAAUGUGCCUGCUAGACACUCAGAGGAACCAGUGAUGGAGAGCCCACCCAAGUCCGACGUCCUGAGACAAUGUCAAACCAUGAUGUUGUCAUUGUGGAAUUCUCGGGUGCCAA: 0.321
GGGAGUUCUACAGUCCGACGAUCUGUAAAAGAAAUCAUGUCCAUACACUUUGUUGCAAGAUGUGAAUUAUUGACACUGAACUUAAUAACUGUGUACUGUUCGGAAGGGGUUCCUCAAAUUUUUUGACUUUUUUUGGAAUUCUCGGGUGCCAA: 0.501
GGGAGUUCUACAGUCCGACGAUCACCUUCCUCCGGCCUUCCAUGAGAAGCAGCCACAGGGGGCCUGGUUUCCUCCUAAGGCCCUUCUCUGUCCCAGGCCACCUCUUCUCCCUCCUCCUGUCCCCUAACCUCCAUGGAAUUCUCGGGUGCCAA: 0.534

Series 3
Target: PABPC1L2, full length, GST fusion (mouse, UniProt A0ABA7IW68)
Method: RNAcompete
Molecule type: RNA
Sample: in vitro
Concentration: 20 nM
Setting: 7-mer, probes averaged, single round
Reference: mean of 7-mers
Direction: higher = stronger binding
Endpoint: 7-mer Z-score
Construct (chain): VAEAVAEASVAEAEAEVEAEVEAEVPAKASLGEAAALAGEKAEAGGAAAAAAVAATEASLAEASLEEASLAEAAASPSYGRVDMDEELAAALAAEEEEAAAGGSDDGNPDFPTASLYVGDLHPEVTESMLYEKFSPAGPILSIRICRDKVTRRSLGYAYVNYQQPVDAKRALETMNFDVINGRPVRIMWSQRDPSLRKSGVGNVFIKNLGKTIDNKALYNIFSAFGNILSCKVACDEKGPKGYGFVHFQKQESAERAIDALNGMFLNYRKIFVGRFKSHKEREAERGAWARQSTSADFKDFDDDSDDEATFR
GUUUAGA: -0.229
UCUAUAG: -0.267
CCUCGUG: -0.309
GAUAAGG: -0.0337
UUUUCUC: -0.36
ACCCGGC: -0.302
AUGCUGU: -0.345
CACGAAG: -0.0899

Series 4
SMILES: CCCCc1c(-c2ccc(O)cc2)[nH]c2nccnc12
Effect on: enzyme activity
Action: inhibitor
Concentration: 0.5 µM
Reference: control
Endpoint: remaining activity
WNK3 (Homo sapiens, UniProt Q9BYP7): 90.3%
STK17A (Homo sapiens, UniProt Q9UEE5): 84.9%
Cyclin-dependent kinase 1, with cyclin B (CDK1, Homo sapiens, UniProt P06493): 45.2%
DYRK3 (Homo sapiens, UniProt O43781): 90.9%
RPS6KA6 (Homo sapiens, UniProt Q9UK32): 72.7%
MAP4K4 (Homo sapiens, UniProt O95819): 60.9%
PDPK1 (Homo sapiens, UniProt O15530): 95.9%
Cyclin-dependent kinase 6, with cyclin D3 (CDK6, Homo sapiens, UniProt Q00534): 84.6%
AXL (Homo sapiens, UniProt P30530): 103%
CAMK2B (Homo sapiens, UniProt Q13554): 97%
MAPKAPK3 (Homo sapiens, UniProt Q16644): 92.8%
BLK (Homo sapiens, UniProt P51451): 85%
EPHB4 (Homo sapiens, UniProt P54760): 86%

Repeated from above (series 3):
GAUAAGG: -0.0337
UUUUCUC: -0.36
ACCCGGC: -0.302
AUGCUGU: -0.345
CACGAAG: -0.0899
